Published values gathered from unrelated publications.
Lines come from different studies, so protocols differ. ± gives the spread as reported.

CC(C)C[C@H](NC(=O)CNC(=O)CNC(=O)CNC(=O)[C@H](Cc1ccc(O)cc1)NC(=O)[C@H](CC(C)C)NC(=O)[C@@H](NC(=O)CNC(=O)[C@H](Cc1ccc(O)cc1)NC(=O)[C@H](CCCCN)NC(=O)[C@H](CC(N)=O)NC(=O)[C@@H](NC(=O)[C@H](CCCCN)NC(=O)[C@H](Cc1c[nH]c2ccccc12)NC(=O)CN)[C@@H](C)O)[C@@H](C)O)C(=O)N[C@@H](CCCCN)C(=O)N[C@@H](CCCCN)C(=O)N[C@@H](CC(C)C)C(=O)N[C@@H](CC(C)C)C(=O)N[C@@H](CC(C)C)C(=O)N[C@@H](CC(C)C)C(=O)N[C@@H](CC(C)C)C(=O)N[C@@H](CCCCN)C(=O)N[C@@H](CCCCN)C(=O)N[C@@H](CC(C)C)C(=O)NCC(=O)O — lowest cytotoxic concentration (HEK-293T cells; CCK-8; 4 h, 37 °C, 10% cell death): 128 µg/mL
CN(CC[C@H](Oc1cccc2ccccc12)c1cccs1)N=O — relative survival (TK6 expressing CYP2C19; 0.5 µM, 4 h, without S9; relative to: vehicle): 78.2%
CC(C)c1ccc(NC(=O)N(C)C)cc1 — IC10 (rat hepatoma cells; cell confluency, IncuCyte imaging; 24 h, nominal concentration): 124 µM
CN(C(=O)n1cnc(-c2ccc[n+]([O-])c2)c1)C1CCCCC1 — concentration (COS-7 expressing human FAAH; culture supernatant; 100 nM, 24 h): 101 ± 1.1 nM
Cc1cscc1-c1ccc(OCCc2cccc(F)c2)c(C(N)=O)c1 — selectivity ratio (HepG2; 3 (unit not given); relative to: CC50 glucose over CC50 galactose): 1
CNCc1ccc(C)c(NC(=O)c2ccc(Nc3nc(-c4ccccc4)c4ccccc4n3)cc2)c1 — CC50 (African green monkey cells; 5 days): 3.09 µM
CC[C@H](C)[C@H](NC(=O)[C@H](CCCNC(=N)N)NC(=O)[C@H](CCCCN)NC(=O)[C@H](CCC(N)=O)NC(=O)[C@H](CCCNC(=N)N)NC(=O)[C@H](CCCNC(=N)N)NC(=O)[C@H](Cc1c[nH]cn1)NC(=O)[C@H](CC(C)C)NC(=O)[C@H](CC(C)C)NC(=O)[C@H](CCCNC(=N)N)NC(=O)[C@H](CC(C)C)NC(=O)CN)C(=O)N[C@H](C(=O)NCC(=O)NCC(=O)N[C@@H](CCCCN)C(=O)N[C@@H](CC(N)=O)C(=O)N[C@@H](CO)C(=O)N[C@@H](CC(C)C)C(=O)N[C@@H](CCCNC(=N)N)C(=O)NCC(=O)NCC(=O)N[C@@H](Cc1c[nH]c2ccccc12)C(=O)N1CCC[C@H]1C(=O)N[C@@H](Cc1c[nH]c2ccccc12)C(=O)N[C@@H](CCC(N)=O)C(=O)N[C@H](C(=O)N[C@@H](CO)C(=O)N[C@@H](CC(C)C)C(=O)N[C@@H](CCCNC(=N)N)C(=O)N[C@@H](CC(C)C)C(=O)N[C@@H](CCCCN)C(=O)O)C(C)C)[C@@H](C)CC — HC50 (human red blood cells; hemolysis): 259 µmol/L
COc1cc2c(N3CCN(C(=O)Nc4ccc(OC(C)C)cc4)CC3)ncnc2cc1OCCCN1CCCCC1 — CC50 (African green monkey cells; 5 days): 11.5 µM
O=c1ccc2ccccc2o1 — chance response (NHEK; cell cycle arrest; concentration not given, 24 h): 0.01%
CC(C)C[C@H](NC(=O)CN)C(=O)N[C@@H](CCCCN)C(=O)N[C@@H](CCCCN)C(=O)N[C@@H](CC(C)C)C(=O)N[C@@H](CC(C)C)C(=O)N[C@@H](CC(C)C)C(=O)N[C@@H](CC(C)C)C(=O)N[C@@H](CC(C)C)C(=O)N[C@@H](CCCCN)C(=O)N[C@@H](CCCCN)C(=O)N[C@@H](CC(C)C)C(=O)NCC(=O)NCC(=O)NCC(=O)N[C@@H](Cc1ccc(O)cc1)C(=O)N[C@H](C(=O)N[C@@H](CC(C)C)C(=O)N[C@@H](CO)C(=O)N[C@@H](CC(=O)O)C(=O)N[C@@H](CCCNC(=N)N)C(=O)N[C@@H](CO)C(=O)N[C@@H](Cc1c[nH]cn1)C(=O)N[C@@H](CC(N)=O)C(=O)N1CCC[C@H]1C(=O)N[C@@H](Cc1ccccc1)C(=O)N[C@@H](CC(N)=O)C(=O)O)[C@@H](C)O — lowest cytotoxic concentration (HEK-293T cells; CCK-8; 4 h, 37 °C, 10% cell death): 128 µg/mL
CCCCCCCCCCCC(=O)N[C@H](CCC(=O)NC(CCCC(N)C(=O)O)C(=O)O)C(=O)O (some centres unmarked) — viability (HFF-1; 100 µg/mL): 85%
Oc1ccc(C(c2ccc(O)cc2)(C(F)(F)F)C(F)(F)F)cc1 — early apoptotic cells (HepG2 spheroids, dissociated; annexin V-FITC/PI flow cytometry; 0.10 µM, 96 h): 4.71 ± 3.63%
CN(CCC=C1c2ccccc2CCc2ccccc21)N=O — relative survival (TK6 expressing CYP2C19; 0.5 µM, 4 h, without S9; relative to: vehicle): 11.7%
Cc1cc(-c2ccc(/N=N/c3ccc4c(S(=O)(=O)O)cc(S(=O)(=O)O)c(N)c4c3O)c(C)c2)ccc1/N=N/c1ccc2c(S(=O)(=O)O)cc(S(=O)(=O)O)c(N)c2c1O — CC50 (African green monkey cells; 5 days): 18 µM
CNC(=O)c1cc(-c2ccoc2)ccc1OCCc1cccc(F)c1 — selectivity ratio (HepG2; 3 (unit not given); relative to: CC50 glucose over CC50 galactose): < 1
CC(C)Cn1cnc2c(N)nc3ccccc3c21 — viability (HFF-1; 100 µg/mL, 48 h): 0.7%
O=S(=O)(c1ccc(O)cc1)c1ccc(O)cc1 — necrotic cells (HepG2 spheroids; annexin V-FITC/PI flow cytometry; 1 µM, 24 h): 6.37 ± 1.71%
N#C[C@@]1(n2ccc(N)nc2=O)O[C@H](CO)[C@@H](O)[C@H]1O — micronucleus test result (CHO; in vitro micronucleus): negative
CC(C)(Cc1c[nH]c2ccccc12)NCC(O)COc1ccccc1C#N (centres unmarked) — CC50 (African green monkey cells; 5 days): 30.9 µM
Cc1ccc(OCCc2cc(F)cc(F)c2)c(C(N)=O)c1 — selectivity ratio (HepG2; 3 (unit not given); relative to: CC50 glucose over CC50 galactose): < 1
CC(C)CN(C[C@@H](O)[C@H](Cc1ccccc1)NC(=O)O[C@H]1CO[C@H]2OCC[C@H]21)S(=O)(=O)c1ccc2nc(NC3CCN(C4CCCC4)CC3)sc2c1 — CC50 (African green monkey cells; 5 days): 14.3 µM
Nc1nc2c(ncn2[C@@H]2O[C@@H]3COP(=O)(O)O[C@H]4[C@@H](O)[C@H](n5cnc6c(=O)[nH]c(N)nc65)O[C@@H]4COP(=O)(O)O[C@H]3[C@H]2O)c(=O)[nH]1 — viability (HFF-1; 100 µg/mL): 82.8%
CC(C)C[C@H](NC(=O)CNC(=O)CNC(=O)CNC(=O)[C@H](CC(N)=O)NC(=O)[C@@H](NC(=O)[C@@H]1CCCN1C(=O)[C@H](C)NC(=O)[C@@H]1CCCN1C(=O)[C@H](C)NC(=O)[C@H](Cc1ccc(O)cc1)NC(=O)[C@@H]1CCCN1C(=O)[C@H](C)NC(=O)[C@H](CC(C)C)NC(=O)[C@H](CO)NC(=O)[C@@H](N)Cc1ccccc1)C(C)C)C(=O)N[C@@H](CCCCN)C(=O)N[C@@H](CCCCN)C(=O)N[C@@H](CC(C)C)C(=O)N[C@@H](CC(C)C)C(=O)N[C@@H](CC(C)C)C(=O)N[C@@H](CC(C)C)C(=O)N[C@@H](CC(C)C)C(=O)N[C@@H](CCCCN)C(=O)N[C@@H](CCCCN)C(=O)N[C@@H](CC(C)C)C(=O)NCC(=O)O — lowest hemolytic concentration (human red blood cells; 1 h, 37 °C, 10% hemolysis): > 256 µg/mL
CC(C)N1CCN(c2ccc(OCC3COC(Cn4cncn4)(c4ccc(Cl)cc4Cl)O3)cc2)CC1 (centres unmarked) — CC50 (African green monkey cells; 5 days): 10 µM
Nc1nc2c(ncn2[C@@H]2O[C@@H]3COP(=O)(O)O[C@H]4[C@@H](O)[C@H](n5cnc6c(N)ncnc65)O[C@@H]4COP(=O)(O)O[C@@H]2[C@@H]3O)c(=O)[nH]1 — viability (HFF-1; 100 µg/mL): 90.9%
Cc1cc(C(C)(C)c2ccc(O)c(C)c2)ccc1O — early apoptotic cells (HepG2 spheroids, dissociated; annexin V-FITC/PI flow cytometry; 0.10 µM, 96 h): 5.04 ± 3.87%
CC(=O)N[C@@H](CCCCN)C(=O)N[C@@H](C)C(=O)N[C@@H](CC(C)C)C(=O)N[C@@H](CC(C)C)C(=O)N[C@@H](CCCCN)C(=O)N[C@@H](CC(C)C)C(=O)N[C@@H](CC(C)C)C(=O)N[C@@H](CCCCN)C(=O)N[C@@H](CCCCN)C(=O)N1CCC[C@H]1C(=O)N[C@@H](CC(C)C)C(=O)N[C@@H](CCCCN)C(=O)N[C@@H](CC(C)C)C(=O)N[C@@H](CC(C)C)C(=O)N[C@@H](CCCCN)C(N)=O — MHC10 (human red blood cells; haemolysis; 6 h, 37 °C, 5% haematocrit in PBS): > 160 µM
CC[C@H](C)[C@H](NC(=O)[C@H](CCCCN)NC(=O)[C@H](CCCCN)NC(=O)CNC(=O)[C@H](CCCCN)NC(=O)[C@H](CC(C)C)NC(=O)[C@H](CCCCN)NC(=O)[C@H](CCCNC(=N)N)NC(=O)[C@@H](NC(=O)[C@H](CC(C)C)NC(=O)[C@H](CCCNC(=N)N)NC(=O)[C@@H](N)CCCNC(=N)N)[C@@H](C)CC)C(=O)N[C@@H](Cc1ccc(O)cc1)C(=O)N[C@@H](CC(C)C)C(=O)N[C@@H](Cc1ccc(O)cc1)C(=O)N[C@@H](Cc1ccccc1)C(=O)N[C@@H](CCCCN)C(=O)N[C@@H](CC(C)C)C(=O)N[C@@H](CCC(N)=O)C(=O)N[C@@H](CC(C)C)C(=O)N[C@@H](CC(C)C)C(=O)N[C@@H](CCCCN)C(=O)N[C@@H](CCCCN)C(N)=O — viability (RAW264.7; MTT; 64 µM, 48 h): ~80%
CC(=O)N[C@@H](CC(C)C)C(=O)N[C@@H](CCCCN)C(=O)N[C@@H](CC(C)C)C(=O)N[C@@H](CC(C)C)C(=O)N[C@@H](CCCCN)C(=O)N[C@@H](CCCCN)C(=O)N1CCC[C@H]1C(=O)N[C@@H](CC(C)C)C(=O)N[C@@H](CCCCN)C(=O)N[C@@H](CC(C)C)C(=O)N[C@@H](CC(C)C)C(=O)N[C@@H](CCCCN)C(N)=O — MHC10 (human red blood cells; haemolysis; 6 h, 37 °C, 5% haematocrit in PBS): > 160 µM
Nc1ncnc2c1ncn2[C@@H]1O[C@@H]2COP(=O)(O)O[C@H]3[C@@H](O)[C@H](n4cnc5c(N)ncnc54)O[C@@H]3COP(=O)(O)O[C@H]2[C@H]1O — viability (HFF-1; 0.1 µg/mL): 88.1%
COc1ccc2c(c1)c(CC(=O)O)c(C)n2C(=O)c1ccc(Cl)cc1 — CC50 (African green monkey cells; 5 days): > 100 µM
CC(c1ccccc1)(c1ccc(O)cc1)c1ccc(O)cc1 — early apoptotic cells (HepG2 spheroids, dissociated; annexin V-FITC/PI flow cytometry; 0.1 µM, 24 h): 17.7 ± 4.61%
OCc1cc(C(O)CNCCCCCCOCCCCc2ccccc2)ccc1O (centres unmarked) — CC50 (African green monkey cells; 5 days): 18.6 µM
CCCCCCCCCC(=O)N[C@@H](CCCCN)C(=O)N[C@@H](CCCCN)C(=O)N[C@@H](C)C(=O)N[C@@H](CC(C)C)C(=O)N[C@@H](CCCCN)C(=O)N[C@@H](CC(C)C)C(=O)N[C@@H](C)C(=O)N[C@@H](CCCCN)C(=O)N[C@@H](CCCCN)C(=O)N1CCC[C@H]1C(=O)N[C@@H](CC(C)C)C(=O)N[C@@H](CCCCN)C(=O)N[C@@H](CC(C)C)C(=O)N[C@@H](CC(C)C)C(=O)N[C@@H](CCCCN)C(N)=O — MHC10 (human red blood cells; haemolysis; 6 h, 37 °C, 5% haematocrit in PBS): > 160 µM
Cn1c(N)nc2c3cccnc3ccc21 — cytotoxicity (rat hepatoma cells; highest tested): not toxic
Cc1ccc(OCCc2ccc(Br)cc2)c(C(N)=O)c1 — CC50 (HepG2; galactose medium; 3 (unit not given)): 10 ± 5.6 µM
CCOP(=S)(OCC)Oc1cc(C)nc(C(C)C)n1 — IC10 (rat hepatoma cells; cell viability; 24 h, freely dissolved concentration): 6.31 µM
CC(C)C[C@H](NC(=O)CNC(=O)[C@H](CCCCN)NC(=O)[C@H](CC(C)C)NC(=O)[C@H](CC(C)C)NC(=O)[C@H](CC(C)C)NC(=O)[C@H](CCCCN)NC(=O)CNC(=O)[C@H](CC(C)C)NC(=O)[C@H](CC(C)C)NC(=O)[C@@H](N)CCCCN)C(=O)N[C@@H](CC(C)C)C(=O)N[C@@H](CCCCN)C(=O)O — lowest cytotoxic concentration (HEK-293T cells; CCK-8; 4 h, 37 °C, 10% cell death): 256 µg/mL

A few entries again:
CN(CC[C@H](Oc1cccc2ccccc12)c1cccs1)N=O — relative survival (TK6 expressing CYP2C19; 0.5 µM, 4 h, without S9; relative to: vehicle): 78.2%
CC(C)c1ccc(NC(=O)N(C)C)cc1 — IC10 (rat hepatoma cells; cell confluency, IncuCyte imaging; 24 h, nominal concentration): 124 µM
CN(C(=O)n1cnc(-c2ccc[n+]([O-])c2)c1)C1CCCCC1 — concentration (COS-7 expressing human FAAH; culture supernatant; 100 nM, 24 h): 101 ± 1.1 nM
